Measurements of several laboratories.
A part holds a random share of what one study measured. Positions count from the first letter of the parent shown.

Block 1
Target: Prothrombin, mature alpha-thrombin (F2, Homo sapiens, UniProt P00734)
Technique: aptamer microarray, sandwich
Molecule type: DNA with 2'F-ANA
Sample: in vitro
Tested at: 200 nM
Setting: whole 15-mer aptamer, many near background
Together with: Cy3 exosite-II aptamer, 400 nM
Reading: higher = stronger binding
Oligonucleotide: GGTTGGTGTGGTTGG
| Modification | mean fluorescence intensity [a.u.] |
| --- | --- |
| 2'F-ANA at 4 5 6 7 11 13 | 54 |
| 2'F-ANA at 1 2 4 5 6 7 8 9 11 12 14 15 | 48.6 |
| 2'F-ANA at 2 4 6 7 11 14 | 88.4 |
| 2'F-ANA at 1 5 6 7 9 12 13 15 | 66.7 |
| 2'F-ANA at 4 5 10 11 12 13 14 15 | 43.1 |
| 2'F-ANA at 1 3 4 6 9 15 | 163 |
| 2'F-ANA at 3 4 5 6 7 10 13 14 15 | 42.8 |
| 2'F-ANA at 2 7 8 10 11 13 14 15 | 79.7 |
| 2'F-ANA at 2 5 8 11 12 13 14 15 | 47.4 |
| 2'F-ANA at 1 3 5 6 8 11 15 | 57.3 |
| 2'F-ANA at 2 3 4 10 15 | 284 |
| 2'F-ANA at 1 3 6 7 8 10 11 12 14 | 68.7 |
| 2'F-ANA at 1 2 3 4 5 6 7 8 9 12 13 15 | 76.7 |
| 2'F-ANA at 7 9 10 12 14 15 | 112 |
| 2'F-ANA at 2 6 10 11 14 | 80.7 |
| 2'F-ANA at 1 5 10 12 14 | 64 |
| 2'F-ANA at 1 3 4 7 9 11 12 13 | 221 |
| 2'F-ANA at 1 2 4 8 10 15 | 65.7 |

Block 2
Target: Sal-like protein 4, full length isoform A (SALL4, Homo sapiens, UniProt Q9UJQ4, residues 1-1053)
Sequence of UniProt Q9UJQ4 (whole entry, looked up): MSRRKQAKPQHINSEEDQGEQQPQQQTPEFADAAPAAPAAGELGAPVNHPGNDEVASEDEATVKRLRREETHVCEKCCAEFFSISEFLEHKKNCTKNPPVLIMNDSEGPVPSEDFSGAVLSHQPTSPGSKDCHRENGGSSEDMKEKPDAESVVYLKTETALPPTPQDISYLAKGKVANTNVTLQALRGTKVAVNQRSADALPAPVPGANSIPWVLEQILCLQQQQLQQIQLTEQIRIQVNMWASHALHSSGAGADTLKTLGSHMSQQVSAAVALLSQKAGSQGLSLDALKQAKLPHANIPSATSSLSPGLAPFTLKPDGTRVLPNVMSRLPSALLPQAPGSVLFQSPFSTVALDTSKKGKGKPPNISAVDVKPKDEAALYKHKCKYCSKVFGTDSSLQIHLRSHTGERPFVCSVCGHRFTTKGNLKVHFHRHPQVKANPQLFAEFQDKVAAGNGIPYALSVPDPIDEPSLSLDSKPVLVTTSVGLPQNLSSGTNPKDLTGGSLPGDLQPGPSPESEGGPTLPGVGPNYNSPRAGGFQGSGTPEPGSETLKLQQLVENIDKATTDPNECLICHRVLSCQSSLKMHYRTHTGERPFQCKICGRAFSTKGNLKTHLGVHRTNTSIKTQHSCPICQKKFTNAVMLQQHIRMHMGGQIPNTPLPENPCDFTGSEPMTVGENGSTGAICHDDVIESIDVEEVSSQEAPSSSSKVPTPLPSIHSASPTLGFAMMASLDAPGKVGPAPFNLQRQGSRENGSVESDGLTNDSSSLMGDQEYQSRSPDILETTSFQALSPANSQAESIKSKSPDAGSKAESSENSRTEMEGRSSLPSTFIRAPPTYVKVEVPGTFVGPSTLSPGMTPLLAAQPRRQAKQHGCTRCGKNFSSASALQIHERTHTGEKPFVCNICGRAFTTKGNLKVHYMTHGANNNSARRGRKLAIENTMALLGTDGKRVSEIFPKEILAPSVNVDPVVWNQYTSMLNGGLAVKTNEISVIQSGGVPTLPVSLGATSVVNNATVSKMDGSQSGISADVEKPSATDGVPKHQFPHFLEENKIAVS
Technique: universal PBM
Molecule type: double-stranded DNA, one strand shown
Sample: in vitro
Tested at: 600 nM
Setting: 8-mer, flanks averaged, mean of replicates
Reading: higher = stronger binding
| Oligonucleotide | E-score |
| --- | --- |
| AAATCCCG | -0.088 |
| AGTATGAT | 0.307 |
| GCCAACCA | -0.166 |
| TGAAGGAA | 0.229 |
| CGGGATGC | -0.347 |
| CACCTGAC | -0.105 |
| GATAGCGC | -0.0866 |
| CGACAAGC | -0.227 |
| ATGTGAAG | 0.287 |
| CTACCTCC | -0.142 |
| AATGTTAT | 0.372 |
| TCCGTAGA | -0.0324 |
| AAAATGCT | 0.166 |
| CCATAGAA | 0.0961 |
| AAGGCAAA | 0.183 |
| AGAATCTC | 0.0228 |
| ATGTAGAC | 0.082 |
| AGTGCACA | -0.0942 |
| AACTCGGG | -0.262 |
| ACTGCACT | 0.00276 |
| GAATAAAA | 0.227 |
| CTAGACGA | -0.0151 |
| ATGCGATA | 0.176 |
| CGGGACTA | -0.187 |
| CCCTTTAG | -0.185 |

Block 3
Target: Fragile X messenger ribonucleoprotein 1, C-terminal low-complexity region (Fmr1, Mus musculus, UniProt P35922)
Technique: RNA Bind-n-Seq
Molecule type: RNA
Sample: in vitro
Tested at: 200 nM
Setting: whole 134-nt RNA, ends assumed
Together with: 150 mM LiCl
Reference: input library
Reading: higher = stronger binding
Each molecule: 7-deaza-guanosine replaces G
Constant ends, left off below: GGGAGUUCUACAGUCCGACGAUC … UGGAAUUCUCGGGUGUCAAGG
| Oligonucleotide | log2 enrichment |
| --- | --- |
| UGGCCCUGGUGGCAUGCGGGGAGGAAGAGGUGGCCUCAUGGAUCGUGGUGGUCCCGGUGGAAUGUUCAGAGGUGGCCGUGGUGGAAACAG | -0.393 |
| UCCUGUGCUACACAUCGUAUGUACCGAAUCGGGGUUUUUGGGGUUUUUGGGUUUUUGGGGAAAGUAUUAUGUUACGCCGUUCGGAUCUGC | -0.944 |
| GAACUUUAGAGGAGGAUCUGAUGGAUAUGGCAGUGGACGUGGAUUUGGGGAUGGCUAUAAUGGGUAUGGAGGAGGACCUGGAGGUGGCAA | 0.734 |
| GUCCUGUGCUACACAUCGUAUGUACCGAAUCGGGGUUUUGGGGUUUUGGGGUUUUGGGGAAAGUAUUAUGUUACGCCGUUCGGAUCUGCA | -0.25 |
| UCCUCAAGUCCUGUGCUACACAUCGUAUGUACCGAAUCGUGUGUGUGUGUGUAAAGUAUUAUGUUACGCCGUUCGGAUCUGCACUUCCAG | 0.701 |
| GUCCUGUGCUACACAUCGUAUGUACCGAAUCGGGCCCCCGGGGCCCCCGGCCCCCGGGGAAAGUAUUAUGUUACGCCGUUCGGAUCUGCA | -2.89 |
| AAGUCCUGUGCUACACAUCGUAUGUACCGAAUCGGGGAGGGGUUUUUGGGGUGGGGAAAGUAUUAUGUUACGCCGUUCGGAUCUGCACUU | -0.00925 |
| AGUCCUGUGCUACACAUCGUAUGUACCGAAUCGGGAAAAAGGGUUUUUUUGGGAGGGAAAGUAUUAUGUUACGCCGUUCGGAUCUGCACU | -1.99 |
| AGUCCUGUGCUACACAUCGUAUGUACCGAAUCGGGGUUUUUGGGGUUUGGGGAGGGGAAAGUAUUAUGUUACGCCGUUCGGAUCUGCACU | -0.924 |
| CAAGUCCUGUGCUACACAUCGUAUGUACCGAAUCGGAAAAGGGGAAAAGGAAAAGGAAAGUAUUAUGUUACGCCGUUCGGAUCUGCACUU | -1.38 |
| CUCAAGUCCUGUGCUACACAUCGUAUGUACCGAAUCGGAAAGGUGGUUUUUGGAAAGUAUUAUGUUACGCCGUUCGGAUCUGCACUUCCA | -0.187 |

Block 4
Target: ABI1, truncated, D143A, DHFR fusion (Arabidopsis thaliana)
Technique: DHFR PCA, deep sequencing
Sample: yeast
Setting: methotrexate growth selection, single substitutions
Together with: (+)-ABA 710 µM
Reference: wild-type fitted maximum
Reading: higher = stronger binding
Starting sequence: PYL1, truncated, DHFR fusion (Arabidopsis thaliana); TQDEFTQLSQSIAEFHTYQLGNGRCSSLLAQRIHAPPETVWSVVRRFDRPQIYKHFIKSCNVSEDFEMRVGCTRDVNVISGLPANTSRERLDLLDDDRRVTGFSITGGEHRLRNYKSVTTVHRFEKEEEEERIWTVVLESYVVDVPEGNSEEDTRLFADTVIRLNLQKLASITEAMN
| Change | relative binding score |
| --- | --- |
| C25K | 62% |
| E64F | 95.8% |
| L93T | 102% |
| T86I | 97.5% |
| I133E | 113% |
| S171W | 88.5% |
| G71S | 85.1% |
| E147T | 99.4% |
| I79T | 105% |
| F5V | 105% |
| S26E | 86.1% |
| E129C | 107% |
| S59V | 97.1% |
| G81N | 58.9% |
| P37H | 88.2% |
| R69W | 83.3% |

Block 5
Target: Interferon regulatory factor 7, full length, phosphomimetic (IRF7, Homo sapiens, UniProt Q92985, residues 1-503, S101K/S471D/S472D/S475D/S476D/S477D/S483D/S484D/S487D)
Sequence of UniProt Q92985 (whole entry, unmodified, looked up): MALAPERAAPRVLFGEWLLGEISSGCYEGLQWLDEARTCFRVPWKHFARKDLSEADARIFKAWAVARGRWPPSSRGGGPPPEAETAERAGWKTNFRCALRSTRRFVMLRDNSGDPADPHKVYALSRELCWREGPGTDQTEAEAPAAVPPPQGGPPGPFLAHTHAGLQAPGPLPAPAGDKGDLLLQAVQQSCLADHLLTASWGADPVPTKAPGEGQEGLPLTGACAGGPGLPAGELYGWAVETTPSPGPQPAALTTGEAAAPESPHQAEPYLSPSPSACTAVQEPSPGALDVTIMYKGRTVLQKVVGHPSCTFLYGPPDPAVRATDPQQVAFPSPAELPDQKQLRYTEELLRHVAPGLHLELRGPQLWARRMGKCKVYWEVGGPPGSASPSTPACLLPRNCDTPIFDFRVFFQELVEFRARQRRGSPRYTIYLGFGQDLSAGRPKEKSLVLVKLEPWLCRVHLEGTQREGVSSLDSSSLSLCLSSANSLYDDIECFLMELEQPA
Technique: protein-binding microarray
Molecule type: double-stranded DNA, one strand shown
Sample: in vitro
Tested at: 250 nM
Setting: 60-bp whole probe
Together with: salmon DNA 0.4 mg/ml
Reference: random background probes
Reading: higher = stronger binding
Constant ends, left off below: GCCTAGCAC … GTCTTGATTCGCTTGACGCTGCTG
| Oligonucleotide | log fluorescence [z-score] |
| --- | --- |
| TTTGACATCTTCATCAACTAGTGCTAG | 0.00122 |
| GACGGACCGGACTATCGGGACGTGCTA | -0.513 |
| ATTTGTTTCCATTTTCTGAAGTGCTAG | 5.03 |
| TTAGATTTCGGGTTACGATTAGTGCTA | 3.5 |
| TCCAGGCTGGTCTCTAACTCAGTGCTA | -1.05 |
| GACGATATCGGGTTTAGAGACGTGCTA | -0.278 |
| TCATGAAGCGCTTCTCGAACTGTGCTA | -0.391 |
| GACGGACTACTTTTCCTGACGTGCTAG | 0.361 |
| TCAACTTTCTCTGCTCTTACTGTGCTA | 0.336 |
| GACGGTTTCCTACTGTTGACGTGCTAG | 1.53 |
| TGGTTTTACTTTCTATCTCTGTGCTAG | 3.75 |
| TCACCAATGCTTCTGGTACTGTGCTAG | -0.742 |
| TTAGGACTGATACTGCTTTAGTGCTAG | -0.135 |
| TTAGGTTTCGACACTGGGTGAGTGCTA | 3.36 |
| TTAGGTCTCCTTTTCCTCTAGTGCTAG | 2.05 |
| TCATTTTCGTTTTTATTACTGTGCTAG | 9.3 |
| GACGGACTGGACACTGGGGACGTGCTA | -0.695 |
| TTAGAACTGAGTATCGGTTAGTGCTAG | 0.723 |

Block 6
Target: CCNB2, cyclin fold, Cln2 fusion (human)
Technique: yeast growth competition, sequencing
Sample: yeast
Setting: weak parent motif
Reference: not given
Reading: higher = stronger binding
Starting sequence: RBL1 docking peptide (human); GSAKRRLFGEDPP; partner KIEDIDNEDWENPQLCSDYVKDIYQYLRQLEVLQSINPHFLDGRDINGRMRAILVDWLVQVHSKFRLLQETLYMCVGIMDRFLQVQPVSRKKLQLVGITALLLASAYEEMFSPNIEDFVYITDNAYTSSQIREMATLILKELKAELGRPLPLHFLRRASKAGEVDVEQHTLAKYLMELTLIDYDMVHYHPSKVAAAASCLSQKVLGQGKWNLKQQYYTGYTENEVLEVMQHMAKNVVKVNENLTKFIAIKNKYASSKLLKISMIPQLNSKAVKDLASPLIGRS
| Change | normalised enrichment score |
| --- | --- |
| GSAKRRLFGTDPP [E10T] | -0.0242 |
| GSAKTRLFGEDPP [R5T] | -0.429 |
| GSAKRRLFGSDPP [E10S] | 0.821 |
| GSAKRALFGEDPP [R6A] | -0.196 |
| GSAKRRLFGECPP [D11C] | 0.447 |
| GSASRRLFGEDPP [K4S] | -0.527 |
| GSAKRRLFIEDPP [G9I] | 0.0528 |
| GSAKRRLFHEDPP [G9H] | 0.0539 |
| GSAKRRLTGEDPP [F8T] | 0.184 |
| GSAKRRLFGEMPP [D11M] | 0.0401 |
| GSAKRRLFGGDPP [E10G] | -0.173 |
| GSAKRRLFGEDMP [P12M] | 0.066 |
| GSAKDRLFGEDPP [R5D] | -0.259 |
| GSAKRRLKGEDPP [F8K] | 0.486 |
| GSAKRRLFGEDPQ [P13Q] | -0.276 |
| GSAKRRLFGENPP [D11N] | 0.41 |
| GSAKARAFGEDPP [R5A L7A] | -0.185 |

A few entries again (block 5):
| Oligonucleotide | log fluorescence [z-score] |
| --- | --- |
| TCATTTTCGTTTTTATTACTGTGCTAG | 9.3 |
| TTAGGTTTCGACACTGGGTGAGTGCTA | 3.36 |
| TCCAGGCTGGTCTCTAACTCAGTGCTA | -1.05 |
| TGGTTTTACTTTCTATCTCTGTGCTAG | 3.75 |
| TTAGGACTGATACTGCTTTAGTGCTAG | -0.135 |
| TCATGAAGCGCTTCTCGAACTGTGCTA | -0.391 |
| GACGATATCGGGTTTAGAGACGTGCTA | -0.278 |
| TTTGACATCTTCATCAACTAGTGCTAG | 0.00122 |
| GACGGACTACTTTTCCTGACGTGCTAG | 0.361 |
| ATTTGTTTCCATTTTCTGAAGTGCTAG | 5.03 |
| TCACCAATGCTTCTGGTACTGTGCTAG | -0.742 |
| TCAACTTTCTCTGCTCTTACTGTGCTA | 0.336 |
